Assay results gathered from unrelated publications.
Parts stem from different laboratories: compare values within a part only. Positions count from the first letter of the parent shown.

Block 1
Target: CCNA2, cyclin fold, Cln2 fusion (human)
Technique: yeast growth competition, sequencing
Sample: yeast
Notes: strong parent motif
Relative to: not given
Reading: higher = stronger binding
Starting sequence: viral docking peptide; KGVKRKLFAEDSS
Change | normalised enrichment score
A9D | 6.31
D11I | 5.87
E10L | 5.7
D11N | 6.33
G2F | 6.17
V3G | 2.24

Single results of other studies
CBF1 full length, N-terminal tag: Centromere-binding protein 1, full length, N-terminal tag (CBF1, Saccharomyces cerevisiae, UniProt P17106, residues 1-351)
Substance | tested on | assay | test system | conditions | scale | endpoint | value
CCTAACTACTATAATCATATGACATAGCTTCGTACAGTCTTGATTCGCTTGACGCTGCTG | CBF1 full length, N-terminal tag | protein-binding microarray | double-stranded DNA, one strand shown, in vitro | 0.8 µM, whole 60-bp probe, no competitor | higher = stronger binding | fluorescence intensity | 965 a.u.
CN(C)CC#Cc1ccc(OCCCc2sc(N3CCc4cccc(C(=O)Nc5nc6ccccc6s5)c4C3)nc2C(=O)O)c(F)c1 | Calcium-dependent protein kinase 1 (CDPK1, Plasmodium falciparum, UniProt P62344) | cell-free assay, competition with immobilised ligand | – | 1 µM | – | remaining binding | 100%
[N-]=[N+]=CC(=O)CC[C@H](N)C(=O)O | – | – | C57BL/6 CES1-/- mouse, blood | intravenous, 1 mg/kg equivalent | – | haemoglobin | 7.1 g/dL
KQLGQVMLL | HLA class I histocompatibility antigen, B alpha chain, allele B*48:01 (Homo sapiens, UniProt P01889) | peptide-MHC binding | peptide | concentration not given | – | binding | active
COc1ccc(-c2c(Nc3ccccn3)[nH]c3c(C4=CCCCC4)c(-c4ccccc4)nn3c2=O)cc1 | – | – | patients with advanced malignancies | oral, dose not given, treatment-emergent adverse events | – | abdominal pain incidence | 12.5%
TGTACGAAGCTATGCGACATCACTATAGTAGTTAGGGTCTTGATTCGCTTGACGCTGCTG | CBF1 full length, N-terminal tag | protein-binding microarray | double-stranded DNA, one strand shown, in vitro | 0.8 µM, whole 60-bp probe, no competitor | higher = stronger binding | fluorescence intensity | 512 a.u.
